Results gathered from unrelated publications.
Compare with care: the assays were run in different laboratories.

With `O=CCNCCOn1c(=O)n(OCCNCCO)c(=O)n(OCCNCCOn2c(=O)n(OCCNCCO)c(=O)n(OCCNCCO)c2=O)c1=O` the MIC was 8 µg/mL (Aspergillus fumigatus; microbial growth, broth dilution).
`CC1C=CC=CC(C)C2C=CC3CC(C)(O)C(Cl)C(C)C3C2C(=O)C(Cl)(Cl)C(=O)C(C)C(=O)O1` (stereo not shown) gave an MIC of 0.1 µg/mL (Staphylococcus aureus; MRSA clinical isolate; OXA SXT resistant).
`CCCC(C)Oc1cccc(NC(=O)c2cccnc2)c1` (stereo not shown) gave an MIC of 64 µg/mL (Clavispora lusitaniae; microbial growth, broth dilution; MY1396).
For `C=CCO/N=C(\C(=O)N[C@@H]1C(=O)N(OS(=O)(=O)O)C1(C)C)c1nsc(N)n1`, the MIC was 2 µg/mL (Serratia marcescens; agar dilution; ATCC 21074, susceptible).
The MIC of `N=C(N)NCCC[C@@H]1NC(=O)[C@H](CCCNC(=N)N)NC(=O)[C@@H](C(c2ccccc2)c2ccccc2)NC(=O)[C@H](Cc2c[nH]c3ccccc23)NC(=O)[C@@H](C(c2ccccc2)c2ccccc2)NC(=O)[C@@H](CCCNC(=N)N)NC(=O)[C@@H](CCCNC(=N)N)NC1=O` is reported as 4 µg/mL (Blastomyces dermatitidis; BD-3).
For `C[C@@H]1C(=O)O[C@@H](C)/C=C/C=C\[C@@H](C)[C@@H]2C=C[C@@H]3C[C@@]4(C)O[C@H]4[C@@H](C)[C@H]3[C@@H]2C(=O)C(Cl)(Cl)C1=O`, the MIC was 0.025 µg/mL (Staphylococcus aureus; MSSA clinical isolate; CLI ERY resistant).
`Cc1c(CN(C)C(=O)/C=C/c2cnc3c(c2)CC(N)C(=O)N3)oc2ccccc12` (stereo not shown) gave an MIC of 8 µg/mL (Escherichia coli; broth microdilution; AR-0058).
`CC1(C)[C@H](NC(=O)/C(=N\OCC(=O)N2CCC(C(=O)O)C2)c2nsc(N)n2)C(=O)N1OS(=O)(=O)O` (stereo partly shown) gave an MIC of 4 µg/mL (Serratia marcescens; agar dilution; ATCC 21074, susceptible).
For `C=C(NC(=O)c1csc(-c2nc3c(cc2O)-c2nc(cs2)C(=O)NC(C(C)O)C(=O)NC(=C(C)OC)c2nc(cs2)C(=O)NC2c4nc(cs4)C(=O)NC(COC(=O)c4c5c6c(cccc6n4O)COC(=O)C(OC4CC(C)(O)C(N(C)C)C(C)O4)C2OC5)c2nc-3cs2)n1)C(N)=O` (stereo not shown), the MIC was 0.0312 µg/mL (Enterococcus faecalis; microbial growth, agar dilution; ATCC29212).
For `CC1(C)[C@H](NC(=O)/C(=N\OC2(C(=O)O)CCCCC2)c2csc(N)n2)C(=O)N1OS(=O)(=O)O`, the MIC was 2 µg/mL (Serratia marcescens; agar dilution; ATCC 21074, susceptible).
With `N=C(N)NCCC[C@@H]1NC(=O)[C@@H](CCCNC(=N)N)NC(=O)[C@H](CCCNC(=N)N)NC(=O)[C@@H](C(c2ccccc2)c2ccccc2)NC(=O)[C@@H](C(c2ccccc2)c2ccccc2)NC(=O)[C@@H](C(c2ccccc2)c2ccccc2)NC(=O)[C@@H](CCCNC(=N)N)NC1=O` the MIC was 1 µg/mL (Blastomyces dermatitidis; BD-1).
With `CC1(C)[C@H](NC(=O)/C(=N\OC2(C(=O)O)CCCC2)c2csc(N)n2)C(=O)N1OS(=O)(=O)O` the MIC was 0.5 µg/mL (Serratia marcescens; agar dilution; ATCC 21074, susceptible).
`COC1C=COC2(C)Oc3c(C)c(O)c4c(c3C2=O)C2=NC3(CCN(CC(C)C)CC3)NC2=C(NC(=O)C(C)=CC=CC(C)C(O)C(C)C(O)C(C)C(OC(=O)Nc2cscn2)C1C)C4=O` (stereo not shown) gave an MIC of 0.026 µM (Mycobacteroides abscessus; broth microdilution; ATCC 19977).

A few entries again:
`CC1C=CC=CC(C)C2C=CC3CC(C)(O)C(Cl)C(C)C3C2C(=O)C(Cl)(Cl)C(=O)C(C)C(=O)O1` (stereo not shown) gave an MIC of 0.1 µg/mL (Staphylococcus aureus; MRSA clinical isolate; OXA SXT resistant).
